Published values gathered from unrelated publications.
Parts stem from different laboratories: compare values within a part only. Substitutions count along the parent as printed.

Series 1
Target: Prothrombin, mature alpha-thrombin (F2, Homo sapiens, UniProt P00734)
Technique: aptamer microarray, sandwich
Molecule type: DNA with 2'F-ANA
Matrix: in vitro
Concentration: 200 nM
Setting: whole 15-mer aptamer, many near background
With: Cy3 exosite-II aptamer, 400 nM
Direction: higher = stronger binding
Strand: GGTTGGTGTGGTTGG
Modification | mean fluorescence intensity
2'F-ANA at 2 7 11 14 | 175 a.u.
2'F-ANA at 3 4 5 12 13 14 15 | 57.1 a.u.
2'F-ANA at 2 4 7 8 9 12 14 | 132 a.u.
2'F-ANA at 1 2 5 10 13 15 | 51.4 a.u.
2'F-ANA at 1 2 3 4 5 6 9 12 13 14 15 | 69.7 a.u.
2'F-ANA at 5 6 7 9 12 13 | 93.3 a.u.
2'F-ANA at 1 4 5 6 8 9 13 14 | 79.1 a.u.
2'F-ANA at 1 2 5 6 7 8 11 13 15 | 56.7 a.u.
2'F-ANA at 2 5 6 9 10 14 | 48.9 a.u.
2'F-ANA at 1 5 7 8 9 11 15 | 53.8 a.u.
2'F-ANA at 1 3 4 7 10 11 13 14 15 | 55.5 a.u.
2'F-ANA at 1 3 4 6 7 9 10 11 15 | 77.1 a.u.
2'F-ANA at 1 3 5 6 9 10 11 12 14 | 48.3 a.u.
2'F-ANA at 1 3 5 6 7 11 14 | 47.5 a.u.
2'F-ANA at 4 6 11 13 14 15 | 68.4 a.u.
2'F-ANA at 1 2 4 5 6 10 13 14 | 74.6 a.u.
2'F-ANA at 1 4 6 8 9 10 14 | 47.7 a.u.
2'F-ANA at 1 2 3 4 7 8 14 | 90.5 a.u.
2'F-ANA at 2 5 6 7 8 9 12 13 14 | 48.2 a.u.
2'F-ANA at 6 7 8 10 15 | 164 a.u.
2'F-ANA at 1 4 8 12 14 15 | 65.6 a.u.
2'F-ANA at 2 3 4 6 8 9 12 15 | 808 a.u.

Series 2
Target: Ras GTPase-activating protein-binding protein 1, RRM domain (G3BP1, Homo sapiens, UniProt Q13283)
Chain of UniProt Q13283 (whole entry, looked up): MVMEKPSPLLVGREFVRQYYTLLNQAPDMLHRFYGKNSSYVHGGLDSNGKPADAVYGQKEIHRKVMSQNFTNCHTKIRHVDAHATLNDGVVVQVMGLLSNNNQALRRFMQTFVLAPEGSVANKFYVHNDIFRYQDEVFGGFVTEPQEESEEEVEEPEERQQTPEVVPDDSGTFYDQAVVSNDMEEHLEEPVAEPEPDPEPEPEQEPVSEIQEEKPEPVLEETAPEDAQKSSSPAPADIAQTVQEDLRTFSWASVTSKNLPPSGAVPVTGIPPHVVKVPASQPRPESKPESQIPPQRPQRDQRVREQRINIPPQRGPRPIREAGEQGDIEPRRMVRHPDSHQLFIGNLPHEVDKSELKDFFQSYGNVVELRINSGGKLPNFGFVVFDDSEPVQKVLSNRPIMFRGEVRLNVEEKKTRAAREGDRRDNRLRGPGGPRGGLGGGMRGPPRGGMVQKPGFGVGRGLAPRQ
Technique: RNA Bind-n-Seq
Molecule type: RNA
Matrix: in vitro
Concentration: 1 µM
Setting: whole 134-nt RNA, ends assumed
With: 150 mM KCl
Baseline: input library
Direction: higher = stronger binding
Shared flanks, not repeated: GGGAGUUCUACAGUCCGACGAUC … UGGAAUUCUCGGGUGUCAAGG
Strand | log2 enrichment
CUCAAGUCCUGUGCUACACAUCGUAUGUACCGAAUCGGAAAAAAAGGUGGAGGAAAGUAUUAUGUUACGCCGUUCGGAUCUGCACUUCCA | -0.155
UGCAUUUCCUGAGCUGAAGAAGGACCCAGACAUGGUGAAGGACAUCAUUAAUGAAGAAGAGGUGCAGUUUCUCAAGACUCUCAGCAGAGG | -0.178
CCUGUGCUACACAUCGUAUGUACCGAAUCGGGGUUUGGGGAAAAAGGGGUUUUUUUGGGGAAAGUAUUAUGUUACGCCGUUCGGAUCUGC | 1.03
GUCCUGUGCUACACAUCGUAUGUACCGAAUCGGAAAAAGGUUUUUUUGGAAAAAAAGGAAAGUAUUAUGUUACGCCGUUCGGAUCUGCAC | -0.246
CAAGUCCUGUGCUACACAUCGUAUGUACCGAAUCGGGAAAAAAAGGGAGGGUGGGAAAGUAUUAUGUUACGCCGUUCGGAUCUGCACUUC | 0.927
UUAAGGGAAUCUAUUGCUGAACACAAACCUCAUAUUGACAAACUACUAAAGAUAGGCCCACAACUAAAGGAAUUAAACCCUGAGGAAGGG | -0.151
UGGCCCUGGUGACAUGCGGGGAGGAAGAGGUGGCCUCAUGGAUCGUGGUGGUCCCGGUGGAAUGUUCAGAGGUGGCCGUGGUGGAGACAG | 0.864
ACCAUGCAGGUGGGCAUCUUUGGGAAGUGGGGCAAGGGGGGGAUAGGGAGGGGGGUAACACAUUGGGAACAGGUGGUCCCAGGUCGUUUC | 0.927
CUCAAGUCCUGUGCUACACAUCGUAUGUACCGAAUCGGAGGUUUUUUUGGAGGAAAGUAUUAUGUUACGCCGUUCGGAUCUGCACUUCCA | -0.17

Series 3
Target: Histone acetyltransferase KAT6A, both winged helices, GST fusion (KAT6A, Homo sapiens, UniProt Q92794, residues 1-181)
Technique: protein binding microarray
Molecule type: double-stranded DNA, one strand shown
Matrix: in vitro
Concentration: not given
Setting: 8-mer, flanks averaged, mean of 2 arrays, mostly near background
Baseline: not given
Direction: higher = stronger binding
Construct (chain): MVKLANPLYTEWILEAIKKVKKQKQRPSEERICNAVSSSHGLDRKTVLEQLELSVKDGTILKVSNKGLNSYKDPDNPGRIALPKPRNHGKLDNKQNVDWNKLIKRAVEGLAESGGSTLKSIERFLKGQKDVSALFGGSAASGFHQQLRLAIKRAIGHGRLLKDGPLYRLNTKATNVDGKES
Strand | E-score
AGCGCTGG | 0.195
GAGCATAC | -0.113
ACTCCACA | -0.232
TGAATCCA | -0.115
CAGGTTGC | -0.0761
ACCAAAGC | -0.0306
TATCAGAA | 0.0222
TAGAGCTA | -0.167
AGTGTTCC | -0.0152
CTATAGGC | 0.0248
CACTCGCA | 0.0657
AAGTCCCC | -0.117
CGGTTAGC | 0.192
CATGAAGC | 0.104
GGGAATTA | -0.035
ACCGGTAC | 0.186
CCATTCAA | -0.164
CATAGCCG | 0.254
CATAGAGG | -0.0836
GGAGCGAA | 0.0437
CCCGCTCG | 0.285
ACATCGCA | 0.0643
GACAGAAC | 0.0685
AAAGGATG | -0.122
GTTAGAGA | -0.137

Series 4
Target: CCND1, cyclin fold, Cln2 fusion (human)
Technique: yeast growth competition, sequencing
Matrix: yeast
Setting: weak parent motif
Baseline: not given
Direction: higher = stronger binding
Starting sequence: MASTL docking peptide (human); PMIAKNLMCELDE
Substitution | normalised enrichment score
L11S | 0.107
L11E | 0.191
L7E | 0.579
E10P | 0.00309
C9E | -0.437
K5E | -0.121
K5Q | 0.258
D12P | -0.00498
N6L | -0.325
K5R | 0.709
L7M | -0.155
E10I | 0.183
K5G | -0.297
L7I | 0.202
I3T | 0.225
L7N | 0.0849

Mixed results
Substance | target | test | test system | setting | how to read | quantity | value
PhoQ, residues 284 288 289 292 302 303 TAVSDG | PhoP, residues 12 14 15 18 19 TPLRH (Escherichia coli, UniProt P23836) | Sort-seq, measured: YFP reporter | E. coli | PhoQ-PhoP variant library, with: 10 µM Mg2+ | baseline: high Mg2+ state, higher = stronger signaling | fold induction | 0.563

Excerpt of the above (series 4):
Substitution | normalised enrichment score
L11E | 0.191
K5R | 0.709
I3T | 0.225
K5Q | 0.258
C9E | -0.437
L7I | 0.202
L7M | -0.155
L11S | 0.107
D12P | -0.00498
